Experimental data collected from several papers.
Numbered parts are unrelated; each lists some results of a single study.
Chain of UniProt Q13237 (whole entry, looked up): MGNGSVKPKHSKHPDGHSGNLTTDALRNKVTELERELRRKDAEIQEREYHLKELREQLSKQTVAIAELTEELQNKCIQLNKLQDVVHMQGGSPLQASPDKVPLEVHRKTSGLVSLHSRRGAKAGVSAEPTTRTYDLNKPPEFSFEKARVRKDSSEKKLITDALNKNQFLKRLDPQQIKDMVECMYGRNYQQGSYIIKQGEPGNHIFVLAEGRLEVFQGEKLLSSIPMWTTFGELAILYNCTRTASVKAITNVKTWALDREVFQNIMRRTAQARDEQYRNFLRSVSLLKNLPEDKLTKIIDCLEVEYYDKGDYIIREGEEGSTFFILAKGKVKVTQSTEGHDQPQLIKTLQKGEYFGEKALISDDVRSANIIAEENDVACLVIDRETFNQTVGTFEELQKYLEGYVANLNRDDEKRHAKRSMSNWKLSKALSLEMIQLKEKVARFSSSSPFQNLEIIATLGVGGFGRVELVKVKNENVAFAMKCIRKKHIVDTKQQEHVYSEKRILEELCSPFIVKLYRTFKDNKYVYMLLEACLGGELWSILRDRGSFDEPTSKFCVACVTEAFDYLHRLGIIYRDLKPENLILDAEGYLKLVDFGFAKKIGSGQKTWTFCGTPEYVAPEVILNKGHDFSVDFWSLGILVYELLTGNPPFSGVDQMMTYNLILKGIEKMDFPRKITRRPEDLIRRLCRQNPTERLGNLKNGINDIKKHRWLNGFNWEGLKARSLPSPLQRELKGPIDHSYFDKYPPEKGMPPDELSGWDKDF
Chain of UniProt Q9Y5S2 (whole entry, looked up): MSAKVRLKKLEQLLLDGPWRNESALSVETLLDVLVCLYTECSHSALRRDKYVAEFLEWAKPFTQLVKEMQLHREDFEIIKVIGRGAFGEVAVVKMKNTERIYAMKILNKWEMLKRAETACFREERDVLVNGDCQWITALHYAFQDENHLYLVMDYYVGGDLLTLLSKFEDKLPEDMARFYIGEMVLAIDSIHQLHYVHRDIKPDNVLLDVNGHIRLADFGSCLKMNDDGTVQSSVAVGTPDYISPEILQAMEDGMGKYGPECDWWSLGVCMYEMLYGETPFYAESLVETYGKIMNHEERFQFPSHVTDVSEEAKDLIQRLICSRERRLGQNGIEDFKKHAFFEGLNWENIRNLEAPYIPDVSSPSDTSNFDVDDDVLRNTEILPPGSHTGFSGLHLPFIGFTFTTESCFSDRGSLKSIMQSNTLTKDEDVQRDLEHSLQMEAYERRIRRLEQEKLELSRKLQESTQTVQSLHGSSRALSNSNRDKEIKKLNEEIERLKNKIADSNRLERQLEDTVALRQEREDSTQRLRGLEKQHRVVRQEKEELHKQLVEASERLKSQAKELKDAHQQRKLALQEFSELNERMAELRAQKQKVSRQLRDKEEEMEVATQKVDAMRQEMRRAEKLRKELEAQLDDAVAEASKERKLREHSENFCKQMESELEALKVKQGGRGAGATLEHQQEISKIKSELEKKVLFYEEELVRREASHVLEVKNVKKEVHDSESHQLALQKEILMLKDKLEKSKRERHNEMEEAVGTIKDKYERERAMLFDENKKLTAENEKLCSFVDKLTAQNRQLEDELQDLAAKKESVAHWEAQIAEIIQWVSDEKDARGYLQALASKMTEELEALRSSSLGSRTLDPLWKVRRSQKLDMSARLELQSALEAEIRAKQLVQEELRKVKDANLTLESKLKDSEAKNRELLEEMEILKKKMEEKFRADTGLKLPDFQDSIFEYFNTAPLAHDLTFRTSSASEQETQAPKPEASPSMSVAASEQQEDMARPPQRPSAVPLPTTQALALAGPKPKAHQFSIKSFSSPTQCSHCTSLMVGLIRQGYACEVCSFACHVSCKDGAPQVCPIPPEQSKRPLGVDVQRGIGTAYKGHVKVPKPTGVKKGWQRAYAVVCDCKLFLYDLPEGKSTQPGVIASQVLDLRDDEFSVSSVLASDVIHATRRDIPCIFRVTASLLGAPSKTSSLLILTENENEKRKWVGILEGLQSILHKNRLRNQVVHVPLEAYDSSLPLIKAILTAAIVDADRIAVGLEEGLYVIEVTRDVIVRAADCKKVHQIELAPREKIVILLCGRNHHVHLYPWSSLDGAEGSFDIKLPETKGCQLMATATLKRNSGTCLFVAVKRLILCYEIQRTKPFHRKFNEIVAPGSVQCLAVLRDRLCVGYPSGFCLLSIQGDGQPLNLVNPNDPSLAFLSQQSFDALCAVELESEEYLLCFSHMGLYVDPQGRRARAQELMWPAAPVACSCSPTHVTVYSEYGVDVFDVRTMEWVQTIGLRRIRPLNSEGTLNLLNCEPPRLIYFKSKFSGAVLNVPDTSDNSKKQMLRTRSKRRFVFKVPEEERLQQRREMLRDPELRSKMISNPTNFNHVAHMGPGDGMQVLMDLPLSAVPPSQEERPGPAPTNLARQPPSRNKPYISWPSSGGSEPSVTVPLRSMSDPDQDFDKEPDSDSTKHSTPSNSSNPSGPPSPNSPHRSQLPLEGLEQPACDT
Chain of UniProt Q8NFD2 (whole entry, looked up): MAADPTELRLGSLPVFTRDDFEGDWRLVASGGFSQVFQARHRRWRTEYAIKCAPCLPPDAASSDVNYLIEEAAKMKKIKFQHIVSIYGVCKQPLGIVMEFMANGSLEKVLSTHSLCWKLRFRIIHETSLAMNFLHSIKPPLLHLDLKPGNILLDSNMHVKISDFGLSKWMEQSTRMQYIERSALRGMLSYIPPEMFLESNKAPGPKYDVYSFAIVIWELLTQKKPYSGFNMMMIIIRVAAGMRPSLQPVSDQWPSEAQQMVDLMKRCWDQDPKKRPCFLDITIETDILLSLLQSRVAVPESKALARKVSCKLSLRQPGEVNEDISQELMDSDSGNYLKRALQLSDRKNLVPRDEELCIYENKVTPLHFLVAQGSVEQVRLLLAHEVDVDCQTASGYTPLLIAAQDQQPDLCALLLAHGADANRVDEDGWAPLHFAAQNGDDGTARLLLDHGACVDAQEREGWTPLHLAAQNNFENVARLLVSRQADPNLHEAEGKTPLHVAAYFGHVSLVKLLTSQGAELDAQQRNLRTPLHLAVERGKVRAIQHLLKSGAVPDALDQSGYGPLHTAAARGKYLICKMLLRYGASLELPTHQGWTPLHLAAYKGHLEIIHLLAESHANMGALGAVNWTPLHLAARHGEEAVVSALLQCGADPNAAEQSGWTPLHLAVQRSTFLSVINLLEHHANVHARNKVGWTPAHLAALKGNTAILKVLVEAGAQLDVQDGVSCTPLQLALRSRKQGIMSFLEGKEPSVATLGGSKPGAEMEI
Chain of UniProt P49761 (whole entry, looked up): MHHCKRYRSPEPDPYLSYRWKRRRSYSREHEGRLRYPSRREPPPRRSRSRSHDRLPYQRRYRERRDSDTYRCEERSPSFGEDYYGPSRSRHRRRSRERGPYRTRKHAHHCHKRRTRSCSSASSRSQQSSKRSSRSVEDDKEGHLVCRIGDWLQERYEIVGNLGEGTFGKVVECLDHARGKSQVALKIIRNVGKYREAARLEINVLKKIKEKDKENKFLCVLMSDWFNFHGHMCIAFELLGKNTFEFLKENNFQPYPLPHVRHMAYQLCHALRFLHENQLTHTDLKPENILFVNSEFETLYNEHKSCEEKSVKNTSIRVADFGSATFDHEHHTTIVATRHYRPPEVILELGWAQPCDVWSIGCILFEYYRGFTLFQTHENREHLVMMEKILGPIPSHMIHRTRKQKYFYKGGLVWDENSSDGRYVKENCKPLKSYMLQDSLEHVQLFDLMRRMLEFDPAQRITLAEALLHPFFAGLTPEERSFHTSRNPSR
Chain of UniProt P35968 (whole entry, looked up): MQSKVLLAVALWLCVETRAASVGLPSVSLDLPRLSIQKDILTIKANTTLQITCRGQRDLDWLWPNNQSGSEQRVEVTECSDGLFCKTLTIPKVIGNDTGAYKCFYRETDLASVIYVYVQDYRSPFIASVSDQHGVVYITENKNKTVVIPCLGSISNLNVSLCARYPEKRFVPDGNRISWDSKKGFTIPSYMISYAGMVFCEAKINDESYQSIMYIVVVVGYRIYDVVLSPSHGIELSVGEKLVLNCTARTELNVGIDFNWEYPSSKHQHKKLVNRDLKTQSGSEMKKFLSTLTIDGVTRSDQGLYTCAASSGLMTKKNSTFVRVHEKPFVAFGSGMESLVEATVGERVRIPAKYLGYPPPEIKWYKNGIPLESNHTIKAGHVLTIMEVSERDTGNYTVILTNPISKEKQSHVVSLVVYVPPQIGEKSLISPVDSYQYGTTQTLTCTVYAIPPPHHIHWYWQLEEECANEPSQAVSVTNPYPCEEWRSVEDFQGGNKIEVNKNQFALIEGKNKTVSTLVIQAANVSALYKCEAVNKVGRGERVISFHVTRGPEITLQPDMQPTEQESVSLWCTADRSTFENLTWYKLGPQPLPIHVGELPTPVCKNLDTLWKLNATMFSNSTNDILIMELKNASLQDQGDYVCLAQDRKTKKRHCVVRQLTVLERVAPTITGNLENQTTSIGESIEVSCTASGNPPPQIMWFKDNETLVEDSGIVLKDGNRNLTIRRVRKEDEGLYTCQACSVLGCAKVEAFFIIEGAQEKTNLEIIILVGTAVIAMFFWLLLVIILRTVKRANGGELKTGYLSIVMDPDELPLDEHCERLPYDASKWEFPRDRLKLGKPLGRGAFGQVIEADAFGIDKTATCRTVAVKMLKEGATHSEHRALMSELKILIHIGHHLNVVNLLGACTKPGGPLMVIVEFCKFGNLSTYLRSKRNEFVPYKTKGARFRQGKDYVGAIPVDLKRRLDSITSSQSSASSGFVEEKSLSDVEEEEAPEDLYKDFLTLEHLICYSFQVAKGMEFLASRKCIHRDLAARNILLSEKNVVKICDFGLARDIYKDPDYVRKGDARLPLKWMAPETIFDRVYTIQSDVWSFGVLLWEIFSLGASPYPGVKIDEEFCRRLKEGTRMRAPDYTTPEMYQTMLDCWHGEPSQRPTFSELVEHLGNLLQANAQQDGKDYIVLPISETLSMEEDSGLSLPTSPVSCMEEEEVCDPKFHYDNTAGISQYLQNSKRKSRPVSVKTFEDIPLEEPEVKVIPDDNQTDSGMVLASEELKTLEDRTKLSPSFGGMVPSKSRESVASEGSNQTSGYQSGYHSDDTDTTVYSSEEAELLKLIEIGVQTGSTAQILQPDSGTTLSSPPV

Study 1
Target: Protein max, full length (MAX, Homo sapiens, UniProt P61244-2, residues 1-151)
Technique: protein-binding microarray
Form: double-stranded DNA, one strand shown
Medium: in vitro
Concentration: not given
Setting: k-mer, scored over probes, only values ≥0.25
Reading: higher = stronger binding
| Strand | E-score |
| --- | --- |
| AACCATGT | 0.336 |
| ACGCGCGG | 0.342 |
| ATGAGGGA | 0.251 |
| CAACATGA | 0.297 |
| CATGAGCA | 0.3 |
| CCATCTGC | 0.296 |
| ACGCGCCC | 0.261 |
| GAGCACGA | 0.321 |

Study 2
SMILES: CCOc1nc(NC(=O)Cc2cc(OC)ccc2OC)cc(N)c1C#N
Effect on: enzyme activity
Action: inhibitor
Concentration: 0.5 µM
Reference: control
| target | remaining activity |
| --- | --- |
| CDC42BPB (Homo sapiens, UniProt Q9Y5S2) | 103% |
| PLK3 (Homo sapiens, UniProt Q9H4B4) | 101% |
| MARK2 (Homo sapiens, UniProt Q7KZI7) | 99.8% |
| MAPK11 (Homo sapiens, UniProt Q15759) | 106% |
| CLK3 (Homo sapiens, UniProt P49761) | 101% |
| KDR (Homo sapiens, UniProt P35968) | 102% |
| PAK3 (Homo sapiens, UniProt O75914) | 104% |
| TXK (Homo sapiens, UniProt P42681) | 93% |
| AKT2 (Homo sapiens, UniProt P31751) | 103% |
| MAP2K1 (Homo sapiens, UniProt Q02750) | 87% |
| PRKG2 (Homo sapiens, UniProt Q13237) | 114% |
| CLK4 (Homo sapiens, UniProt Q9HAZ1) | 96.1% |

Study 3
Compound: CCc1ccccc1C(=O)Nc1n[nH]c2c(C)c(F)c(C3C(C#N)=C(C)N(C)C(C)=C3C#N)cc12
Technique: competition with immobilised ligand
Concentration: 1 µM
| target | effect on | remaining binding [%] |
| --- | --- | --- |
| STK38L (Homo sapiens, UniProt Q9Y2H1) | binding | 82 |
| CDK4 (Homo sapiens, UniProt P11802) | cell-free assay | 100 |
| EPHB3 (Homo sapiens, UniProt P54753) | cell-free assay | 57 |
| PIP5K1A (Homo sapiens, UniProt Q99755) | cell-free assay | 100 |
| FES (Homo sapiens, UniProt P07332) | cell-free assay | 68 |
| ANKK1 (Homo sapiens, UniProt Q8NFD2) | cell-free assay | 100 |

Study 4
Cell line: HaCaT
Concentration: 100 µM
Time: 18 h
| Compound | viability [%] |
| --- | --- |
| COc1ccc2c(c1)c(CC(=O)OCC(=O)O)c(C)n2C(=O)c1ccc(Cl)cc1 | 97.3 |
| Nc1ncn([C@@H]2O[C@H](CO)[C@@H](O)[C@H]2O)c(=O)n1 | 54.7 |
| COc1cc(C(C)=O)ccc1OCCCN1CCC(c2noc3cc(F)ccc23)CC1 | 66.1 |

For quick reference, copied from above (study 2):
| target | remaining activity |
| --- | --- |
| MAP2K1 (Homo sapiens, UniProt Q02750) | 87% |
| CDC42BPB (Homo sapiens, UniProt Q9Y5S2) | 103% |
